Measured values of several laboratories.
Parts stem from different laboratories: compare values within a part only. Substitutions count along the parent as printed.

Block 1
Target: Sal-like protein 4, full length isoform B (SALL4, Homo sapiens, UniProt Q9UJQ4-2, residues 1-616)
Technique: universal PBM
Molecule type: double-stranded DNA, one strand shown
Sample: in vitro
Tested at: not given
Setting: 8-mer, flanks averaged, mean of replicates
Direction: higher = stronger binding
Measurement: E-score
Target sequence (chain): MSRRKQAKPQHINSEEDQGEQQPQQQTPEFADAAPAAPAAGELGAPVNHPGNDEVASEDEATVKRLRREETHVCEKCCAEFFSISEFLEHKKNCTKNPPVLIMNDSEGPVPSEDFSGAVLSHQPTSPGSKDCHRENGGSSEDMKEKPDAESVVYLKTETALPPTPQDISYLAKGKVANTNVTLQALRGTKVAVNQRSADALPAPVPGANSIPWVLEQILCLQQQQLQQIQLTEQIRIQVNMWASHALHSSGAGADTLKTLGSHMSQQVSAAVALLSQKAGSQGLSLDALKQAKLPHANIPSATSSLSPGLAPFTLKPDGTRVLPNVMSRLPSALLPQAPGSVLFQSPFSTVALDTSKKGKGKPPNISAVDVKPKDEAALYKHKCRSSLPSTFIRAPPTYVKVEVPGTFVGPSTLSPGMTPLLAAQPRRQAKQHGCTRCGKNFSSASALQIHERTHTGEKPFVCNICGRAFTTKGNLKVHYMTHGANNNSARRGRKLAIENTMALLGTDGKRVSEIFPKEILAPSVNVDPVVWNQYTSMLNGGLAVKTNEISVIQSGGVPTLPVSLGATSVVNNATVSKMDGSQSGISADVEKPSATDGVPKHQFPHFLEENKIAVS
GGATGTGA: -0.0445
TAGCCTCA: -0.00035
AGCTTACA: 0.23
ATCTCACC: 0.0599
ATTACCTC: 0.116
CTTGTGGC: -0.151
ACAAAGCC: -0.186
AGACATCC: -0.0536
AATCGGCT: -0.00021
CACATCTG: -0.0254
AGTACTCC: -0.186
GGACCCCA: -0.298
AAGGCTAG: 0.125
TCCCAGAA: -0.0693
CACTGACC: -0.225
AATAGGAT: 0.244
AAAATCCG: -0.0362
ACACTCAT: 0.266
GAATCTGA: -0.0244

Block 2
Target: ABI1, truncated, D143A, DHFR fusion (Arabidopsis thaliana)
Technique: DHFR PCA, deep sequencing
Sample: yeast
Setting: methotrexate growth selection, single substitutions
With: (+)-ABA 1.4 µM
Baseline: wild-type fitted maximum
Direction: higher = stronger binding
Measurement: relative binding score
Starting sequence: PYL1, truncated, DHFR fusion (Arabidopsis thaliana); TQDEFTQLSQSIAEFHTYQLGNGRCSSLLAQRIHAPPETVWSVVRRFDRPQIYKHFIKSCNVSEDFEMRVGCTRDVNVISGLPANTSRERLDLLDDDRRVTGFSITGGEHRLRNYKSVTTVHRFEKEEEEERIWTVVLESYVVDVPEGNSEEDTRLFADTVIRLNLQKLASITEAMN
I12M: 18.3%
L29T: 5.01%
V62R: -4.37%
A35D: 2.48%
G108C: 0.81%
L166T: 2.22%
W41Y: -20.9%
Q31M: 15.1%
E174M: 8.69%
E89T: -6.76%
L82M: 35.6%
E139Q: 69.9%
A30E: 24.5%
T17A: 11.6%
N177K: 51.6%

Block 3
Target: RNA binding protein fox-1 homolog 2, RRM domain, GST-SBP tag (RBFOX2, Homo sapiens, UniProt O43251-10, residues 100-194)
Technique: RNA Bind-n-Seq
Molecule type: RNA
Sample: in vitro
Tested at: 365 nM
Setting: natural RNA segment, single round, ends assumed
Baseline: no-protein control
Direction: higher = stronger binding
Measurement: RBNS enrichment (R)
Shared flanks, not repeated: GGGAGUUCUACAGUCCGACGAUC … UGGAAUUCUCGGGUGCCAA
Residues (chain): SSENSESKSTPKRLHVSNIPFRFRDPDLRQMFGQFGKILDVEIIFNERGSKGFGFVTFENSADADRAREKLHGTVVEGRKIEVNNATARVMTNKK
AGCUUCAGGGACUCUUAGUCUGUCCUUCCCCACUUUUGGUCCCAACAUCCCUGGGAUGGUGUGCUGUCUGGGCACCACGGUCUCCAUCCUCACUCCUGAGAGAUUUCUGC: 0.602
UUGAGGAGGGACCAUGAGAACAGAAAUUACCUUAUGAAAAGCUACUUCUGUUCCUGCUUUCCCUCUCACGUAUUGACGGUUUAUUUCUUUGACCUCCCAGAGGGCUGAAC: 0.426
CCUUCUGUGCCAGGCAUUCUGGUCACUGACCUUGAACUAGGCCUGCAGGCUCUCCUGUCACCCCGCAUCACCUCACCCUUCUCUGUCCCUCAGCCUUCAGUCACAUUUAG: 0.807
GGGCAAUGCAGGAUCCAAAUCCUCAUCUUACUUUCCCGACCUUAAGGAUGUAGCUGCUGCUUGUCCUGUUCAAGUUGCUGGAGCAGGGGUCAUGUGAGGCCAGGCCUGUA: 0.352
UGUGUGUAACUUCUAACUUCACUGGUUCCUCCCAUCUGAAUUGGCCACAUGCUUGCUGAAGAGACUUGUUUUCUUCUUCUAAGACAGUGGUUUUGUUUUUUGGGUUUUUU: 0.227
CGGGCGUGGUGGCUCAUGCCUAUAAUCCCAGCACUUUGGGAGGCCAAGCGGGGGCGGAUCACGAGGUCAGGAGAUUGAGACCAUCCUGGCUAACACGGUGAAACCCCAUC: 0.324
AAAAAAUAGAGCCUGAGGGAUCUUUACUAGUUAUAAAGAUACAGAACUCUUUCAAAACCUUUUGAAAUUAACCUCUCACUAUACCAGUAUAAUUGAGUUUUCAGUGGGGC: 0.382
ACAAAAGUGCCUGGCAUCCACUACUGCUGCCUUUCAUUUAUAAUAAUAGCCCUUCCAUCUGGCAGUGGGGGUAGAAUACACUCUUGACAUUCUUGUCUCCUGCUUUAGAA: 0.428
AGGGGAUCCCUUCCCCCAAGCCCGUCAGUAGCGUCAGCUUGGGGCCUCUCGGGACUCCUGUUGUAGGUGGUCCCAGUCACAAGAAACCCUCUCCAGGCAAGAGGCCAUUC: 0.264
UGUAAGAGCACCAAUAGGUCCUAGUCUAGCUGAGGUCCAGAUCUAUGCCAUGCUGGGGUGACAUUUUAGAGACUGACCGAAAUAGGUGAGACCCUGCCUGUAUUCAGAAA: 0.644
CUUAUUUUAAAUGAGAUCAGGUAGUGUUGCUUUUUACAGCAUAAUAAAUAUGUGUAUUGAAAACAAAUAUGAGAAAAAGUGUUUUCUUUUUUAAUAACUAAGGUUUUCUC: 0.783
CACUAUUUAUUGACAGGUUGGGCUGUGUGUGUGCGCAUGUGUGUAUACAUUUCCAGGCGUGCCUGUGUCCUGUAGCUUUUUAAAAGGAAACCCAGUCAUCCCACUAUGAA: 0.812

Block 4
Target: BATF3, bZIP domain (human)
Technique: DHFR protein complementation
Sample: yeast
Setting: single substitutions, most at no-binding floor
Baseline: wild-type JUN-FOS pair
Direction: higher = stronger binding
Measurement: binding fitness
Starting sequence: JUN, bZIP domain (human); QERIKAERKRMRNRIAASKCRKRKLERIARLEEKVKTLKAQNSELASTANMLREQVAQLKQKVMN; partner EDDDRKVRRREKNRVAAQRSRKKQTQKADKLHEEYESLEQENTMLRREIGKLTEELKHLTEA
S47R: 0.21 natural log
M51I: 0.21 natural log
M51P: -0.383 natural log
S43M: 0.19 natural log
E44T: 0.141 natural log
A57G: 0.254 natural log
V35C: 0.208 natural log
Q55Y: -0.000618 natural log
A29Q: 0.147 natural log
V56E: -0.388 natural log
K39Q: 0.125 natural log
E44K: 0.186 natural log
L45G: -0.797 natural log
A46S: 0.202 natural log
V35W: -0.071 natural log
N42M: -0.395 natural log
R30K: 0.126 natural log

Block 5
Target: TAR DNA-binding protein 43, full length, His tag (TARDBP, Homo sapiens, UniProt Q13148, residues 1-414)
Technique: RNA Bind-n-Seq
Molecule type: RNA
Sample: in vitro
Tested at: 20 nM
Setting: 6-mer, flanks averaged, single round
With: 150 mM LiCl
Baseline: input library
Direction: higher = stronger binding
Measurement: 6-mer enrichment (R)
CAUCGG: 0.828
CAUAAU: 0.935
AACCCG: 0.885
AUAUCU: 0.871
GCAGAC: 0.871
AGGAGA: 0.983
CAGCUC: 0.854
AAGUCG: 0.917
CUGCUG: 0.955
CAAGCC: 0.871
AACCGG: 0.85
UUAUAU: 1.11
AUGGGG: 1.33
UUCCUC: 0.92
UGACGG: 0.966
AUCAUC: 0.808
AGAGGU: 1.06
AAGUAU: 1
UAGAAC: 1.05
ACCGUA: 0.846
CUAUUA: 0.949
UGAUUA: 0.912
CUAUAU: 0.949
CGUCUC: 0.871
UCAAGU: 0.901

Block 6
Target: Ras GTPase-activating protein-binding protein 1, RRM domain (G3BP1, Homo sapiens, UniProt Q13283)
UniProt Q13283, sequence (whole entry, looked up): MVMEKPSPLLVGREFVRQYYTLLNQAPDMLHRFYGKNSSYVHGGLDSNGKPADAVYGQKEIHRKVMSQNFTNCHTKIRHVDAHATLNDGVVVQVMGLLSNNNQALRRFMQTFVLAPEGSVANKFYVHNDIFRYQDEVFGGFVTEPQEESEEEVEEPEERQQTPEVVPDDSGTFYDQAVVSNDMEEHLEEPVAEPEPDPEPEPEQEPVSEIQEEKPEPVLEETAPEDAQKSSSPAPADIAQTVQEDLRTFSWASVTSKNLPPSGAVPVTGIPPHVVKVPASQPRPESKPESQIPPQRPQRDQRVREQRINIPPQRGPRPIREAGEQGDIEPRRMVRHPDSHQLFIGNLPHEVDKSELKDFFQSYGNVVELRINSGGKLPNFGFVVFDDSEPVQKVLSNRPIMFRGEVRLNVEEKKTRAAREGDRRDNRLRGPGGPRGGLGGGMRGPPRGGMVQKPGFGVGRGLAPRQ
Technique: RNA Bind-n-Seq
Molecule type: RNA
Sample: in vitro
Tested at: 1 µM
Setting: whole 134-nt RNA, ends assumed
With: 150 mM KCl
Baseline: input library
Direction: higher = stronger binding
Measurement: log2 enrichment
Shared flanks, not repeated: GGGAGUUCUACAGUCCGACGAUC … UGGAAUUCUCGGGUGUCAAGG
UGGCCCUGGUGGCAUGUGGGGAGGAAGAGGUGGCCUCAUGGAUCGUGGUGGUCCCGGUGGAAUGUUCAGAGGUGGCCGUGGUGGAGACAG: 0.778
CUCAAGUCCUGUGCUACACAUCGUAUGUACCGAAUCGGUGGUUUUUGGUUUGGAAAGUAUUAUGUUACGCCGUUCGGAUCUGCACUUCCA: -0.283
AGUCCUGUGCUACACAUCGUAUGUACCGAAUCGGGGCCCCGGGGCCCCGGCCCCGGGAAAGUAUUAUGUUACGCCGUUCGGAUCUGCACU: -0.929
UCCUGUGCUACACAUCGUAUGUACCGAAUCGGGGAGGGGAAAAAAAGGGGAAAAAGGGGAAAGUAUUAUGUUACGCCGUUCGGAUCUGCA: 0.808
UCCUCAAGUCCUGUGCUACACAUCGUAUGUACCGAAUCGGCGGGCGGGCGGAAAGUAUUAUGUUACGCCGUUCGGAUCUGCACUUCCAGC: -0.293
CACAGACAACACGCACCCACACAGACACAGAGGGAAGGGGUUGGGAUGGGGACAGGGUGCACAGCAGGGCGGGGUAGGAACCCAGCCCCU: -0.386
CUCAAGUCCUGUGCUACACAUCGUAUGUACCGAAUCGGGCCGGGGCCGGCCGGAAAGUAUUAUGUUACGCCGUUCGGAUCUGCACUUCCA: -0.282
UGGGAGGUGGAUUUUGUUUAUUUUUUUAGCUCAUUUCCAGGGGUGGGACUUUUUUUUUAAUAUGUGUCAUGAAUAAAGUUGUUUUUGAAA: 1.72
GCAGGAAGUAAAAACAAAUGGAAAUGCUUCGGAUAGUGGCAGGGGUGGGGGUUGCUAAGGAAAGGGUGGGAUGGGAGUGGGUAAAGUGUU: 0.598
UGGCCCUGGUGGCACGCGGGGAGGAAGAGGUGGCCUCAUGGAUCGUGGUGGUCCCGGUGGAAUGUUCAGAGGUGGCCGUGGUGGAGACAG: 0.884
GUCCUGUGCUACACAUCGUAUGUACCGAAUCAAAGUGUGUGUGUGUGUGUGUGUGUAAAAAAGUAUUAUGUUACGCCGUUCGGAUCUGCA: 0.0394
CUCAAGUCCUGUGCUACACAUCGUAUGUACCGAAUCGGCCGGCCGGGCCGGGGAAAGUAUUAUGUUACGCCGUUCGGAUCUGCACUUCCA: -0.326

Block 7
Target: CCNA1, cyclin fold, Cln2 fusion (human)
Technique: yeast growth competition, sequencing
Sample: yeast
Setting: weak parent motif
Baseline: not given
Direction: higher = stronger binding
Measurement: normalised enrichment score
Starting sequence: CDC6 docking peptide (human); TLKGRRLVFDNQL; partner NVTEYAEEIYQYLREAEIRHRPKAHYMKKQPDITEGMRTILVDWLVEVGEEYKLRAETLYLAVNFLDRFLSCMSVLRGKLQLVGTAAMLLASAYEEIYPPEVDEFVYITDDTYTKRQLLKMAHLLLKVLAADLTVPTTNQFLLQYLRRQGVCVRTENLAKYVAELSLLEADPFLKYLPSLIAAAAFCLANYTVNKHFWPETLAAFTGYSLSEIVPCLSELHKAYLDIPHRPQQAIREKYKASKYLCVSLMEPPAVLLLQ
TLKGRALVFDNQL [R6A]: 0.0875
TLKGKRLVLDNQL [R5K F9L]: 0.0863
TLKGHRLVFDNQL [R5H]: -0.147
TLKGRNLVFDNQL [R6N]: 0.133
TLKGRRLQFDNQL [V8Q]: 0.0654
ILKGRRLVFDNQL [T1I]: 0.142
TYKGRRLVFDNQL [L2Y]: 0.0585
TLKGRRLVFYNQL [D10Y]: 0.532
TLKGRRLVFDNQD [L13D]: 0.0914
TLKGRRLWFDNQL [V8W]: 0.471
DLKGRRLVFDNQL [T1D]: -0.0955
TLNGRRLVFDNQL [K3N]: 0.235
TLKERRLVFDNQL [G4E]: -0.0964
TLKGRRLVFDNHL [Q12H]: 0.338
TLKGRRLVFDNLL [Q12L]: -0.00975
TLKGRSLVFDNQL [R6S]: 0.121
FLKGRRLVFDNQL [T1F]: -0.225
TLKGRRLVFANQL [D10A]: -0.184

Mixed results
PhoQ, residues 284 288 289 292 302 303 SSCCRF — fold induction (PhoP, residues 12 14 15 18 19 NFCKL (Escherichia coli, UniProt P23836); Sort-seq, item: YFP reporter; E. coli; PhoQ-PhoP variant library, with: 10 µM Mg2+; baseline: high Mg2+ state, higher = stronger signaling): 14.2

Repeated from above (block 7):
TLKGRRLVFYNQL [D10Y]: 0.532
TLKGRRLQFDNQL [V8Q]: 0.0654
TLKGRRLVFDNLL [Q12L]: -0.00975
DLKGRRLVFDNQL [T1D]: -0.0955
TYKGRRLVFDNQL [L2Y]: 0.0585
FLKGRRLVFDNQL [T1F]: -0.225
